Published values pooled from the literature.
Parts stem from different laboratories: compare values within a part only. Substitutions count along the parent as printed.

Sample 1
Target: RNA binding protein fox-1 homolog 2, RRM domain, GST-SBP tag (RBFOX2, Homo sapiens, UniProt O43251-10, residues 100-194)
Method: RNA Bind-n-Seq
Form: RNA
Medium: in vitro
Concentration: 365 nM
Setting: natural RNA segment, single round, ends assumed
Reference: no-protein control
Direction: higher = stronger binding
Endpoint: RBNS enrichment (R)
Shared flanks, not repeated: GGGAGUUCUACAGUCCGACGAUC … UGGAAUUCUCGGGUGCCAA
Residues (chain): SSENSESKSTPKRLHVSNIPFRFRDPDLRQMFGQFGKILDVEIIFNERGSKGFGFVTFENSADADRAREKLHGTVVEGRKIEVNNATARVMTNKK
GGAGAGAGCUAGUGGCUUAAAAGGCCUGGGGUGGUGGGGAGAUCACACCACUCUCAACCAUACUCUGUUCCUGUGAGGCCCCCAUCACCACCUCCGUGCAGGGUCCUAGC: 0.308
UCUCCUUUGCAAAGGACAGUUUUGAAUGAAUUGUACCUCAAUAUGUUCUGGGACAGUGUCAAAAUGGAAUAACCUGGCAUAAAGCUGAAUUAUCUGAGGAAACUCAAUGG: 0.323
CUGAGAGCAGCCCCUCCCCACCAUCCCUCCACAUGCUGCAAGGACAGACUGAAGGGCUGUGAGCAGGUGUAAGGGCUCCCACAUCCGUGAGCCUGUGUCCGCAGCUGCUG: 0.612
GGCCAGCCUGGUCUUGAACUCUUGAACUCCUGACCUCAGGUAAUCCACCCACCUCAGACUCCCAAAGUGCUGGGAUUACAGGCGUGAGCCACCAUACCCGGCCAAAAAUU: 0.175
CAGGAGAUUGAGACCAGCCUGACCGUCAUGGCGAAACCCCGUCUAUACUAAAAAUACAAAAAAUAGCCAGGCAUGGUGGCGCACGCCUGUGGUCCCAGCUACUUGGGAGG: 1.05
AAUCAUAGCAUCCCAUGGUUUUGUGGUAUCUGGGUUUGUGUAAUGUUGUUGACACCUGUAUUUAAUGACACCUGCACACCUUUCAAAUAAAAACAUGUUUUUCUUCAAGU: 0.596
UCCUGGGGCUUCCUGGUGGCUGUGACCAGUUGAGGGGCUGUUCCUGGGUGGGGUGGCAAUGGGAGGACAGGUCAGAGCGCCCUCAUUUGUGGGGCUGCCCCUCCGGGUUU: 0.751
GCUGCUCCGAGUCCUCCCCUGCAACCAUGAGUUCCACACCAAGUGUGUUGACAAGUGGUUGAAGGCCAACCGGACGUGUCCCAUCUGCCGGGCCGACGCCUCCGAGGUGC: 0.24
UUGAAUAUCAGGAGGGACUUUCUACGCCCUGGUGACUUCACGUUGGAAGCCGGGUCUUGCGAGCUGGAGAAAUGGACUGGAUGAGGGCUCUAGGGGUGGGCUGUUUACAC: 0.753
AAAGCCUGAAAGCCAUUGGUGAUCCAGGGGCACCUUCUCUUCAGCUUGACUGGGCGUCUUCCGCUGCAUAACACUCAAGGUGUCUGCUCUAGUCAUCCAGAAACCCACUC: 0.377
CCCUUUCACCCCUCUGCAAAACAAACAAGCAACAUCCUCAAAACCCAACCCCAUGCCUCACAGAGCUUCCUGUGGCUUCUCCAGCCUUUCUCCCUCACAUCAGGAGGUAG: 0.994
UUAUAUGCCUGGUGCACAGUGCUUAGAAGUAAGCAAUUCCCAGGUCAUAGCUCAAGAAUUGUUAGCAAAUGACAGAUUUCUGUAAGCCUAUAUAUAUAGUCAAAUCGAUU: 0.269

Sample 2
Target: Histone acetyltransferase KAT6A, winged helix 2, GST fusion (KAT6A, Homo sapiens, UniProt Q92794, residues 85-181)
Method: protein binding microarray
Form: double-stranded DNA, one strand shown
Medium: in vitro
Concentration: not given
Setting: 8-mer, flanks averaged, mean of 2 arrays, mostly near background
Reference: not given
Direction: higher = stronger binding
Endpoint: E-score
Construct (chain): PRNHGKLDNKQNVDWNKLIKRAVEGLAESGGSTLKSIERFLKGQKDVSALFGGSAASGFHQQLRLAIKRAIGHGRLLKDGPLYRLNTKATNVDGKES
AAAGATGT: -0.121
CACCCTAC: -0.154
AGTACTAA: -0.152
GTCTGGAA: -0.083
CTAAACGC: 0.0828
CTAATAAA: 0.0868
ATGAACTG: 0.0241
CTGATTAA: 0.13
GCCCTCGC: -0.0365
CTAGCAAA: 0.0773
AACTTCAC: -0.102
CCAAGGGA: -0.0518
AACTTTAA: 0.18
ACACATCA: -0.157
ATCTGCAT: 0.0115
AGATATCG: 0.0749
CGGAATGA: 0.00914
TAAGACGA: -0.129
AGACAATA: -0.0668
GAGTTATC: 0.0454
AGTGTCTC: -0.06
CAGGAGCC: 0.0588
GAACTGTA: -0.0494
ATTTTTTA: 0.122
ACAAACTC: 0.0919

Sample 3
Target: Phosphate system positive regulatory protein PHO4, full length, GST-tagged (PHO4, Saccharomyces cerevisiae, UniProt P07270, residues 1-312)
Method: competition protein-binding microarray
Form: double-stranded DNA, one strand shown
Medium: in vitro
Concentration: 2 µM
Setting: whole 60-bp probe, lowest competitor level
With: Cbf1 competitor, 0.05 µM
Direction: higher = stronger binding
Endpoint: fluorescence intensity
Shared flanks, not repeated: … GTCTTGATTCGCTTGACGCTGCTG
Construct (chain): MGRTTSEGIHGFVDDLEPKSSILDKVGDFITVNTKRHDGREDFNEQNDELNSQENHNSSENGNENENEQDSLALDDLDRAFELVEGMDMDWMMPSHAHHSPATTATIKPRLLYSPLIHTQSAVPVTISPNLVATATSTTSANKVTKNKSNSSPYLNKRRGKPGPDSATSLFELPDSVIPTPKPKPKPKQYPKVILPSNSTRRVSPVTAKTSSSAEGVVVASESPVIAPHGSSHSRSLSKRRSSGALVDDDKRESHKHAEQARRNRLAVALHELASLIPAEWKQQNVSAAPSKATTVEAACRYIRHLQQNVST
GCCACCATGGATCCACACGTATTTGGATCATCTTCG: 5920 a.u.
AAAGCGGTAATTTGGAACGTGGGTGCAGATATCTAT: 14000 a.u.
TATAGGGCTCTGAGTCTCGTGGTCGAGGAATCCGGC: 8020 a.u.
GTCTTGTCTCATTGCCGAGTGGGTGTCCCCACTTCA: 5310 a.u.
GTCGACAACTACTTAGTCGTGATGGAACAGTATGGA: 5040 a.u.
TGAGTTCTCCTTCATTGCGTGATGGATCATCAAGTG: 4650 a.u.
CTTCTGTAAATTTGGGGCGTGGGTGGACGCGCCCCG: 9020 a.u.
AATCTGTGTCAGTTCCACGTTCGTAATGGCAACCCG: 10100 a.u.
CTTTCCCGATCTTGGTAAGTGGGTGTAGCACATTTG: 4300 a.u.
GCCCATTAAAAATAATATGTGTGAGCTTCTTCCACA: 4300 a.u.
GTCTTGTCTCATTGTCACGCGACTTTCCCCACTTCA: 6960 a.u.
CGAGTGTCATATTATATTAGATATTCATTTTTTTGC: 3670 a.u.
TGAACCCTTACTTACTGCGTGACTCGGTTGATTTAG: 5860 a.u.
AATCTCTGGCTTCACCACGTTTTCCAGCTTCAAAGA: 12000 a.u.
AAAGCGGTAATTTGACGGGTGGGTGCAGATATCTAT: 4510 a.u.

Sample 4
Target: CCNE1, cyclin fold, Cln2 fusion (human)
Method: yeast growth competition, sequencing
Medium: yeast
Setting: weak parent motif
Reference: not given
Direction: higher = stronger binding
Endpoint: normalised enrichment score
Starting sequence: CDC6 docking peptide (human); TLKGRRLVFDNQL
Q12M: 0.943
T1A: 0.0123
F9D: 0.797
N11A: 0.927
L2I: 0.491
L2Q: 0.235
K3Q: 0.316
L13A: 0.326
R5C: 0.267
T1M: 0.674
N11P: 0.636
N11H: 0.118
N11Y: 1.41
Q12C: 0.663
V8C: 0.815
G4S: -0.425
V8T: 0.345
Q12R: 0.0147

Sample 5
Target: RING finger protein unkempt homolog, zinc fingers 1-6, GST-SBP tag (UNK, Homo sapiens, UniProt Q9C0B0, residues 30-357)
UniProt Q9C0B0, sequence (30-357, looked up): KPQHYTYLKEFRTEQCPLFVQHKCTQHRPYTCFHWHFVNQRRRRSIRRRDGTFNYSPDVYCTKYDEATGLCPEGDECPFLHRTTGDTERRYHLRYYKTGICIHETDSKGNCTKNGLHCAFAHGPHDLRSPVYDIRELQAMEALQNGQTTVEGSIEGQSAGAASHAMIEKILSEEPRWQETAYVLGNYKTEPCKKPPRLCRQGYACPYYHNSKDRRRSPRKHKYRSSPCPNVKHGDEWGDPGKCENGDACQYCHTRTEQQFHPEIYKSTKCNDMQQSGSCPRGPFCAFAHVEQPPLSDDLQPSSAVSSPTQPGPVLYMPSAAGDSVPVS
Method: RNA Bind-n-Seq
Form: RNA
Medium: in vitro
Concentration: not given
Setting: RNA with constant flanks, human and mouse sites, ends assumed
Reference: input RNA pool
Direction: higher = stronger binding
Endpoint: bound/input enrichment
Shared flanks, not repeated: GGGAGUUCUACAGUCCGACGAUC … CAACAGAGGAUUGAGCAUCA
GCUGGGGCAGAGCUCAGCACCCUCAGCCCUGCGGCCGUUCAUCUUGUGUGUUUGUGACUUACUUUUGUAGCCUGUCAUCUUCUGGGCCCAGAGUCAGGGUCUCUGUGUCCCCUGUGCCUC: 0.232 ratio
AGCAAAUUCUGUGAAUAUGAAAGGAGAUUUCAGAUGACUUUCCAGUUCAGCAUAUGGGACAAAUUUCGGGACUUGGAAAACUUGCCAGCUACGAAUUUCUCUAAUUUGGUUCAUCUGGUG: 0.276 ratio
CCUUGAUAUAAUACUAACUAAAGUAGAAAGUUUAAAAAGUAGAGAUUUUAGUCUUUUCACUAAUGUCCUUUUACUGUUCCAAGACCCAGCCUUGCAUUUAGCUAUCAUGCCUACGUCCUG: 3.93 ratio
UUCACGGAGGUGACCAUUGGCCCCUCUGUACUCUCUGCUGCCAGAGAUGACAUCAGCAAGCUCAGAAACACACUCCGCUUUCUCUUGGGAAAUUUGACCGGUUUUAACCCCGAGACAGAU: 0.106 ratio
UGUCUGCCUCAUUCUAAAAUUUACACAGUAGACCAUUUGUCAUCCAUGCUGUCCCACAGAUAGUUUUUUUGUUUACGAUUUAUGACAGGUUUAUGUUACUUCUAUUUGAAUUUCUAUAUU: 14.4 ratio
AACUUGGCUGCUGUCUUGGAGAGGCUGGUGGACAUAAAGAAAGGGAAUACUUUGCUCUUGCAGCAUCUGAAGAGGAUCAUCUCUGACCUGUGUAAACUCUACAACCUCCCUCAGCAUCCU: 0.104 ratio
GAAGUUUUUACAAAGAUCAGACUGGUACUAGAAGUGCUCCAGAAACAGCUUCUAGAUUUGCCACUUGACACUGACCUGGAAAAUGAAAAAACAUCUACUGUCCCAUUGGCUGAGAUGCUU: 0.158 ratio
AACGAUAUCAAACCAGCAUUUGGCACCAACCAAGAGGAUUAUGCAAGUUACAUUAUGAAUGGGAUCAUCAAGUGGGGUGACCCCGUGACCCGAGUCCUAGAUGACGGAGAGCUGCUGGUC: 0.146 ratio
CAGCCCAUCUCUAUGGCCUCCCUGUCUACAAACACAGAGCAAGAGCGGGUAUCUCGAGGAACCAGUACAGUCCUGCCAUCCGCCUCCCUCCAUGCACCACCAGAACCCAUUGAGGAAGCU: 0.31 ratio
GUCCACGGCGUCCCGGCUCCUGGCGACGCCAAGAGGGCGAAGAUGUGGCUGAAGCUGUUUUUCUUGCUCCUGUAUUUCCUGGUCCUGUUCGUCCUGGCCAGGUUUUUUGAGGCCAUUGUG: 0.113 ratio
ACUGUCAAAAGGAACUUUGACAAAUGCAUUAGUAACCAAAUAAGGCAAAUGGAAGAAGUAAAGAUCUCAAAAAAGAGUAAAGUUGGAAUUCUUCCAUUUGUUGCUGAAUUUGAAGAAUUU: 0.55 ratio
